Experimental data gathered from unrelated publications.
Every numbered part comes from another study and shows a few of its results, in no order.

Set 1 — technique: protein binding microarray; molecule type: double-stranded DNA, one strand shown; matrix: in vitro; concentration: not given; relative to: not given; reading: higher = stronger binding
Target: Histone acetyltransferase KAT6A, both winged helices, GST fusion (KAT6A, Homo sapiens, UniProt Q92794, residues 1-181)
Setting: 8-mer, flanks averaged, mean of 2 arrays, mostly near background
Construct (chain): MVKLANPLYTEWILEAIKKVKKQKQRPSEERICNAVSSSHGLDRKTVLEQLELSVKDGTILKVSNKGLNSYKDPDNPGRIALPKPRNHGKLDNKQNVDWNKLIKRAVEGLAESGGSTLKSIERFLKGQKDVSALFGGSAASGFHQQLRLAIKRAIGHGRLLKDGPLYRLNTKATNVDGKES
Strand | E-score
CAAAGGTA | -0.0894
ATCTTCCC | -0.0934
TCTACGCA | 0.0373
CGCTACAG | 0.0872
ACCTATGG | -0.178
AAAAGCCA | 0.0184
ATTCTCTG | 0.0154

Set 2 — technique: universal PBM; molecule type: double-stranded DNA, one strand shown; matrix: in vitro; concentration: not given; reading: higher = stronger binding
Target: Sal-like protein 4, full length isoform B (SALL4, Homo sapiens, UniProt Q9UJQ4-2, residues 1-616)
Setting: 8-mer, flanks averaged, mean of replicates
Strand | E-score
AATCCGAA | 0.057
AGGGTAAG | 0.00648
GGGTCTCA | -0.169
CGATCCTC | -0.179
ATCGGTTA | 0.156

Set 3 — technique: competition protein-binding microarray; molecule type: double-stranded DNA, one strand shown; matrix: in vitro; concentration: 2 µM; with: Cbf1 competitor, 0.05 µM; reading: higher = stronger binding; all sequences stand within: … GTCTTGATTCGCTTGACGCTGCTG
Target: Phosphate system positive regulatory protein PHO4, full length, GST-tagged (PHO4, Saccharomyces cerevisiae, UniProt P07270, residues 1-312)
Setting: whole 60-bp probe, lowest competitor level
Construct (chain): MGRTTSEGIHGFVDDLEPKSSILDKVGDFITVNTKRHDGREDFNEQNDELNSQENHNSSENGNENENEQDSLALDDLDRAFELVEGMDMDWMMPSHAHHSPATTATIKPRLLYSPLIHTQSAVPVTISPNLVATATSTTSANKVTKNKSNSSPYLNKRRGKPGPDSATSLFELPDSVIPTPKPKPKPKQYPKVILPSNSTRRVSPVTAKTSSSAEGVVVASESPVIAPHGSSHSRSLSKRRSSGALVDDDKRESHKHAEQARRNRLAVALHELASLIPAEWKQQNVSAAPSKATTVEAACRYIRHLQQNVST
Strand | fluorescence intensity [a.u.]
AGCGGCCGCAGAACTCACGTGGCAGCTGAACCCTCC | 13100
CACCTCCCGGTATTCAAGATGATGACAGTGAAGAGA | 4820
ATGCTATGCCTATTGTTTATTTGGATTTTCCCATAT | 4230
GTCTTGTCTCATTGGTGTGTGGGTGTCCCCACTTCA | 6470
CATACCCAACCTTTTCACGTGGTGTAAGATATTTGT | 16300

Mixed results
Substance | target | assay | system | conditions | how to read | endpoint | value
PhoQ, residues 284 288 289 292 302 303 QWGLFV | PhoP, residues 12 14 15 18 19 NQAHL (Escherichia coli, UniProt P23836) | Sort-seq, measured: YFP reporter | E. coli | PhoQ-PhoP variant library, with: 10 µM Mg2+ | relative to: high Mg2+ state, higher = stronger signaling | fold induction | 0.933

Repeated from above (set 3):
Strand | fluorescence intensity [a.u.]
AGCGGCCGCAGAACTCACGTGGCAGCTGAACCCTCC | 13100
